Published values pooled from the literature.
Every numbered part comes from another study and shows a few of its results, in no order. Changes are numbered by the printed parent chain.

Series 1 — method: RNA Bind-n-Seq; form: RNA; medium: in vitro; concentration: 365 nM; baseline: no-protein control; direction: higher = stronger binding; endpoint: RBNS enrichment (R)
Target: RNA binding protein fox-1 homolog 2, RRM domain, GST-SBP tag (RBFOX2, Homo sapiens, UniProt O43251-10, residues 100-194)
Notes: natural RNA segment, single round, ends assumed
Residues (chain): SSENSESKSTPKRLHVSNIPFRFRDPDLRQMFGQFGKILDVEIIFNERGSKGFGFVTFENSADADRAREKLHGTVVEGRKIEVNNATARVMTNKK
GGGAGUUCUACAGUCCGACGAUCUUUAAUUUUGUCCAUCCUAGAGAUAAUAACGAAAGAGAAAUGUCUGCAUGUGUGCACACACACACAUCUUAGAUACACAAAAAGAAAUGUUCAGAUUCCUUUGAGAAUUUUGGAAUUCUCGGGUGCCAA: 0.522
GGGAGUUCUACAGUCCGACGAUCCAGCAGCCCUCAUGGCCCCUUUCCUGUACCAAGCACCCAGCUCUCCUCUUGUUCUGAAAGGGAUUUCACAUCUUCAGCGUAGCUUCAGUACAUCAUCGGAGGAGUCUGCUUGGAAUUCUCGGGUGCCAA: 0.414
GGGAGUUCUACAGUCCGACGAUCGAAAAAUUCCAGUCCGAUUUCUUUGUGUGUCAGCUGACUUCCUUAGCUGAUUGUUCCCACUUGCACCUCUCCACCUUUGGCACUAGAACUCCUGAGACACCACUUCUCAUUGGAAUUCUCGGGUGCCAA: 0.458
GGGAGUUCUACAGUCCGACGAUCCAGAAUUCUAGAGACAGCGUUGUUCGGCAUCAAGGCAAAAGCCCACCUUUGCUUUUUAUGGAAAGCAUUACUUUAUUUAAAGAGACAGACAAUGACGCAUUUUAAUCUACUGGAAUUCUCGGGUGCCAA: 0.464
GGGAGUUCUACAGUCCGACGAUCCUGGCUGGUGGUUUAACAGGUGUCACUCUGCAAACCUGAACGGUGUUUACUACCGUGGUUCCUACAGGGCAGAAACGGAUAAUGGUGUUGUGUGGUACACCUGGCAUGGGUGGAAUUCUCGGGUGCCAA: 7.37
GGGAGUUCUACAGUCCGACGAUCGUUUUACAUUUAAAUUCAGGCAGUGUUAAUAUGCCAAGGUAGGGAAUGUGCCUUUUUCAGAGUUGGCCAGGAGCUCCUGGCUGGGACACGGAGAGGCAGGUGUGGCGUAAUGGAAUUCUCGGGUGCCAA: 0.361
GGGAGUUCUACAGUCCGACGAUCUCACAUUUAUUUUUCUUAAAGUACUUUUGUUCCAAAGGGGCCUUGUGGCGCCAGAGAGCUAGGAACUGUGGCUCCGUCCAUACCCGUUUCCACACACUGACCCUUCAGAGUGGAAUUCUCGGGUGCCAA: 0.166
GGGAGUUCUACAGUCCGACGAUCCCAUCACUGGAAUUUCCCACCGCUUUGUGAGCCGUGUCGUAUGACCUAGUAAACUUUGUACCAAUUCAAAGACCCGAGUGAUGCUUAAUGGCUGGGGACGGGGGGACAGGUGGAAUUCUCGGGUGCCAA: 0.314
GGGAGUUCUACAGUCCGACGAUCAAAGCUCACAUUCUAAGUAGAGAAGCAGGAAAAAUUGUUCAAAAGACAAACACCCUGUUGAACUGAGAGAAGUAAACUCCAGAAGGGAACCAAGAUUUCCUCCCUUUCCUUGGAAUUCUCGGGUGCCAA: 0.19
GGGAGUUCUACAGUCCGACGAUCCCUCUCCCAGGCUUAGUCAGCUACUCCUUUCUCUGGCCAGAGAAUCCCAUAAGGAAAUAGCCCCCACGCCAGGGCUGCUCUGCUCAGAGGAAGGGAAGGCUGGGCUGUGGUGGAAUUCUCGGGUGCCAA: 0.236
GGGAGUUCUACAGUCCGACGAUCCCACUGCCCAACCUUCUCCUGAUAACCAUGGCAUGCACCGUCUCCUCUCCCCUGCCCCUCUUCCCUGACCCCAGCUGGCUAGCACUGCAGAGUUUGGCUGCUGGCAGUGUUGGAAUUCUCGGGUGCCAA: 1.08
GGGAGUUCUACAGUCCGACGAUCGGCCUCUCCUGGAACUCUGAACCUGCUGUGGAAGGAAUUGGCCAUGACCUUCACCUCUGGAGAGUAGGGUCUAUGGCGAGGGAAAAGGGUGUUCACCAUGAUAACCUAGUUGGAAUUCUCGGGUGCCAA: 0.835

Series 2 — method: DHFR PCA, deep sequencing; medium: yeast; with: (+)-ABA 58 µM; baseline: wild-type fitted maximum; direction: higher = stronger binding; endpoint: relative binding score
Target: ABI1, truncated, D143A, DHFR fusion (Arabidopsis thaliana)
Notes: methotrexate growth selection, single substitutions
Parent: PYL1, truncated, DHFR fusion (Arabidopsis thaliana); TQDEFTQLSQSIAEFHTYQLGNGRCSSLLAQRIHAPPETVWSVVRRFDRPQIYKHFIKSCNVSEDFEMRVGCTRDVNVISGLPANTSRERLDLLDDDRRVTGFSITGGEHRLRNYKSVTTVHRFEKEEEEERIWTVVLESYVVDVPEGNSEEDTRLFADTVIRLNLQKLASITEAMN; partner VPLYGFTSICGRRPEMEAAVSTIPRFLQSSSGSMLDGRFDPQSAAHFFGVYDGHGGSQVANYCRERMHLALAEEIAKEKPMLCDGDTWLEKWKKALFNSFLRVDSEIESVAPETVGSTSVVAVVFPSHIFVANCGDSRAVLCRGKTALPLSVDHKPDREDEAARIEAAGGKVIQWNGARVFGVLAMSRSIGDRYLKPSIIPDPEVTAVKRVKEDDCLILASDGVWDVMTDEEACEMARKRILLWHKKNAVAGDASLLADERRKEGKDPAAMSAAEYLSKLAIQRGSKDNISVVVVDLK
P37N: 26.2%
Y18P: 88.8%
R49N: 76.2%
H110E: 5.82%
R163F: 11.1%
K58W: 46%
D3I: 86.1%
N149Y: 17.9%
K126H: 95.2%
K168C: 79.7%
E67I: 86.6%
F15E: 30.6%

Series 3 — target: CCNE2, cyclin fold, Cln2 fusion (human); method: yeast growth competition, sequencing; medium: yeast; notes: strong parent motif; baseline: not given; direction: higher = stronger binding; endpoint: normalised enrichment score
Parent: CDKN1A docking peptide (human); SKACRRLFGPVDS
SKACRCLFGPVDS [R6C]: 1.64
SKACRMLFGPVDS [R6M]: 1.86
SKACRRLFGPSDS [V11S]: 4.2
SKACRTLFGPVDS [R6T]: 1.39
SKACRRFFGPVDS [L7F]: 0.561
SKACRRLFGPRDS [V11R]: 2.86
SKACRRMFGPVDS [L7M]: 0.482
SIACRRLFGPVDS [K2I]: 2.09
SKACRGLFGPVDS [R6G]: 0.537
SKACRRSFGPVDS [L7S]: 0.27
SKACRRLFGPVCS [D12C]: 2.59
SKKCRRLFGPVDS [A3K]: 1.14
SKACYRLFGPVDS [R5Y]: -0.0531
SKACRRLAGPVDS [F8A]: -0.114
SKACRRLFQPVDS [G9Q]: 4.81
SKACCRLFGPVDS [R5C]: 0.353
SYACRRLFGPVDS [K2Y]: 2.9
SKACRRLFGYVDS [P10Y]: 2.77
SKALRRLFGPVDS [C4L]: 1.01
SKACRRLFGPVLS [D12L]: 2.42
SAACRRLFGPVDS [K2A]: 3.15
SKACRREFGPVDS [L7E]: -0.188

Series 4 — target: CREB3, bZIP domain (human); method: DHFR protein complementation; medium: yeast; baseline: wild-type JUN-FOS pair; direction: higher = stronger binding; endpoint: binding fitness
Notes: single substitutions, most at no-binding floor
Parent: JUN, bZIP domain (human); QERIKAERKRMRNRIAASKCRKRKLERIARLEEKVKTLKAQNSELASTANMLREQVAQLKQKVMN; partner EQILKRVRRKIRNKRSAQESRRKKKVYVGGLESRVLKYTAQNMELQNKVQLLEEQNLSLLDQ
A40P: -1.51 natural log
R30S: -1.41 natural log
E54C: -1.45 natural log
N42S: -1.45 natural log
I28R: -1.44 natural log
L38P: -1.53 natural log
A57M: -1.58 natural log
K34D: -1.41 natural log
K36M: -1.51 natural log
Q55K: -1.53 natural log
S47K: -1.45 natural log
M51F: -1.34 natural log
N42E: -1.52 natural log
Q55F: -1.59 natural log

Series 5 — method: universal PBM; form: double-stranded DNA, one strand shown; medium: in vitro; concentration: not given; direction: higher = stronger binding; endpoint: E-score
Target: Sal-like protein 4, full length isoform B (SALL4, Homo sapiens, UniProt Q9UJQ4-2, residues 1-616)
Notes: 8-mer, flanks averaged, mean of replicates
GCATATCC: 0.094
ACGTCCAG: -0.112
AGGTTAAT: 0.146
AGTGGGCC: -0.323
ATGCACCG: -0.121
TAGAGCGA: -0.121
AACTAAAT: 0.154
ATAGCGAC: 0.00934
AAGTCCAT: -0.0257
GTAGTACA: 0.0717
ACTTGCAG: 0.0105
ACAGACGA: -0.0922
ACTCCAAT: -0.012
GTCCTCCA: 0.00469
CACGCGTG: -0.283
CCGCGAGA: -0.243
TAACTTAA: 0.328
GCGGGACA: -0.228
ACTTACTA: 0.138
ACAGTAAA: 0.228

Some of these lines once more (series 3):
SKACRRLFGPSDS [V11S]: 4.2
SKACRTLFGPVDS [R6T]: 1.39
SKACRRFFGPVDS [L7F]: 0.561
SKACRRLFGPRDS [V11R]: 2.86
SKACRRMFGPVDS [L7M]: 0.482
SIACRRLFGPVDS [K2I]: 2.09
